Assay results pooled from the literature.
Numbers after ± are the reported error.
Target: Acetylcholinesterase (ache, Electrophorus electricus, UniProt O42275)
Chain of UniProt O42275 (whole entry, looked up): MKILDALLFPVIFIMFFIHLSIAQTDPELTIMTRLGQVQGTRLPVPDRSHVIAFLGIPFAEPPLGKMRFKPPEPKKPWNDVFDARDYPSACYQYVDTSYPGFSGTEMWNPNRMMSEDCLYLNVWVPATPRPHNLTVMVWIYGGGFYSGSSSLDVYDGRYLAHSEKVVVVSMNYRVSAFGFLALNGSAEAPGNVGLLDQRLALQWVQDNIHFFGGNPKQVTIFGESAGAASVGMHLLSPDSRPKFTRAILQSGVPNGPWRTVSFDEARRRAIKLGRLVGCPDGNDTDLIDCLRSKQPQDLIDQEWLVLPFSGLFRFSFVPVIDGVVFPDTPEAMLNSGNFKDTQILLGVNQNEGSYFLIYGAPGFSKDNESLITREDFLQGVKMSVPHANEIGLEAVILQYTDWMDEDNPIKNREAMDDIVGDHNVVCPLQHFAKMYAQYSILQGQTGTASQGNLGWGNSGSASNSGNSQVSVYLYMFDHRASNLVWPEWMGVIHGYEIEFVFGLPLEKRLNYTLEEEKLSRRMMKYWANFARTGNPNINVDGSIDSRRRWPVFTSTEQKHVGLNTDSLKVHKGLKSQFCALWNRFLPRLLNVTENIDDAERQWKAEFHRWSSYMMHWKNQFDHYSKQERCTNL

| SMILES | assay | conditions | inhibition |
| --- | --- | --- | --- |
| Cc1ccc(Nc2c3c(nc4ccccc24)CCCC3)cc1 | enzyme activity, inhibitor, Ellman | 100 µM | 72.2% |
| O=C(O)CCCN1C(=O)/C(=C/c2cn(-c3ccccc3)nc2-c2ccc(OCc3ccccc3F)cc2)SC1=S |  | 10 µM | > 20% |
| COc1ccc(Nc2c(NC3CCN(Cc4ccccc4)CC3)c(=O)c2=O)cc1 | enzyme activity, inhibitor, Ellman | 25 µM | 64.5% |
| CCOc1ccc2[nH]c(SCC(=O)Nc3ccc(OC(F)F)cc3)nc2c1 | Ellman method | 10 µM | 1.79 ± 0.59% |
| O=C(c1ccc(Nc2c3c(nc4ccccc24)CCCC3)cc1)C1CC1 | enzyme activity, inhibitor, Ellman | 100 µM | 31.9% |
| O=c1c(Nc2ccc(O)cc2)c(NC2CCN(Cc3ccccc3)CC2)c1=O | enzyme activity, inhibitor, Ellman | 25 µM | 66.7% |
| CC(C)=C[C@H]1C[C@](C)(O)[C@@H]2[C@H]3CC[C@@H]4[C@@]5(C)CC[C@H](O[C@@H]6OC[C@H](O)[C@H](O[C@@H]7O[C@H](CO)[C@@H](O)[C@H](O)[C@H]7O)[C@H]6O[C@@H]6O[C@@H](CO)[C@H](O)[C@H]6O)C(C)(C)[C@@H]5CC[C@@]4(C)[C@@]34CO[C@@]2(C4)O1 | enzyme activity, inhibitor, Ellman | 100 µM | 87% |
| C[n+]1cc2[nH]c3ccccc3c2cc1C(=O)[O-] | enzyme activity, inhibitor | 0.1 µg/mL | 0% |
| O=c1c(NCCc2ccccc2)c(NC2CCN(Cc3ccccc3)CC2)c1=O | enzyme activity, inhibitor, Ellman | 25 µM | 59% |
| C[n+]1ccc2c(c1)[nH]c1cc(Br)ccc12 | enzyme activity, inhibitor | 0.1 µg/mL | 87% |
| O=c1c(NCc2ccc(O)cc2)c(NC2CCN(Cc3ccccc3)CC2)c1=O | enzyme activity, inhibitor, Ellman | 25 µM | 54.9% |
| COCc1cc(C)nc(SCC[N+](C)(C)CC(=O)Nc2cccc(C(F)(F)F)c2)c1C#N |  | 10 µM | 8.28 ± 2.16% |
| COc1ccc(Nc2c(NC3CCN(Cc4ccccc4)CC3)c(=O)c2=O)cc1OC | enzyme activity, inhibitor, Ellman | 25 µM | 62.4% |
| O=C1Nc2ccccc2/C1=N/NC(=O)c1cc(-c2ccc3c4c(cccc24)CC3)n[nH]1 |  | 10 µM | > 20% |
| O=S(=O)(F)CCc1cn(-c2ccc(-c3ccccc3)cc2)nn1 |  | 20 µM | 47.9% |
| Cc1ccnc(Nc2c3c(nc4ccccc24)CCCC3)c1 | enzyme activity, inhibitor, Ellman | 50 µM | 13.1% |
| C[n+]1ccc2c(c1)[nH]c1ccccc12 | enzyme activity, inhibitor | 0.1 µg/mL | 78% |
| Cc1cccnc1Nc1c2c(nc3ccccc13)CCC(C)C2 (stereo not shown) |  | 100 µM | 91.1 ± 5.92% |
| CCc1ccc(Nc2c(NC3CCN(Cc4ccccc4)CC3)c(=O)c2=O)cc1 | enzyme activity, inhibitor, Ellman | 25 µM | 50.4% |
| COc1ccc2cc(Nc3c4c(nc5ccccc35)CCCC4)ccc2c1 | enzyme activity, inhibitor, Ellman | 100 µM | 70.4% |
| O=C(CCCc1nc2ccccc2c(=O)[nH]1)Nc1ccc(OC(F)F)cc1 | Ellman method | 10 µM | 2.95 ± 1.71% |
| c1ccc2ncc(Nc3c4c(nc5ccccc35)CCCC4)cc2c1 | enzyme activity, inhibitor, Ellman | 100 µM | 48.3% |
| O=c1c(NCc2ccccc2)c(NC2CCN(Cc3ccccc3)CC2)c1=O | enzyme activity, inhibitor, Ellman | 25 µM | 51.6% |
| COc1ccc(Nc2c3c(nc4ccccc24)CCCC3)cc1 | enzyme activity, inhibitor, Ellman | 100 µM | 50.3% |
| O=c1c(Nc2ccccc2)c(NC2CCN(Cc3ccccc3)CC2)c1=O | enzyme activity, inhibitor, Ellman | 12.5 µM | 48.8% |

For quick reference, copied from above:
| SMILES | assay | conditions | inhibition |
| --- | --- | --- | --- |
| COc1ccc2cc(Nc3c4c(nc5ccccc35)CCCC4)ccc2c1 | enzyme activity, inhibitor, Ellman | 100 µM | 70.4% |
| O=C(CCCc1nc2ccccc2c(=O)[nH]1)Nc1ccc(OC(F)F)cc1 | Ellman method | 10 µM | 2.95 ± 1.71% |
| c1ccc2ncc(Nc3c4c(nc5ccccc35)CCCC4)cc2c1 | enzyme activity, inhibitor, Ellman | 100 µM | 48.3% |
